Experimental data pooled from the literature.
Every numbered part comes from another study and shows a few of its results, in no order. Values joined by “and” are separate records of one study, mostly repeats; a detail may differ.

Series 1 — effect on: enzyme activity; action: inhibitor; concentration: 0.5 µM; relative to: control; quantity: remaining activity
SMILES: CCn1cnc2c(Nc3cccc(Cl)c3)nc(N[C@H]3CCCC[C@H]3N)nc21
NEK1 (Homo sapiens, UniProt Q96PY6): 95%
JAK3 (Homo sapiens, UniProt P52333): 99.6%
GSK3B (Homo sapiens, UniProt P49841): 104%
WEE1 (Homo sapiens, UniProt P30291): 110%
MAP3K5 (Homo sapiens, UniProt Q99683): 103%
GRK7 (Homo sapiens, UniProt Q8WTQ7): 97.9%
TBK1 (Homo sapiens, UniProt Q9UHD2): 92.8%
LCK (Homo sapiens, UniProt P06239): 89.5%
ULK2 (Homo sapiens, UniProt Q8IYT8): 94.2%
MAPKAPK2 (Homo sapiens, UniProt P49137): 94.9%
MAP2K2 (Homo sapiens, UniProt P36507): 107%
MST1R (Homo sapiens, UniProt Q04912): 99.6%
CSNK1G3 (Homo sapiens, UniProt Q9Y6M4): 45.9%
EPHA3 (Homo sapiens, UniProt P29320): 85.7%

Series 2 — target: vesicular stomatitis virus glycoprotein; effect on: viral entry; method: VSVΔG-G pseudovirus; concentration: 10 µM; quantity: inhibition
Oc1ccc2ccccc2c1N=Nc1ccccn1: 26%
Cc1ccccc1CN1C[C@@H]2C[C@@H](c3cc4ccccc4o3)N3CCC[C@@]23C1=O: 25%
O=C(NC1CCCCCC1)c1ccc(-c2ccc(F)cc2)nc1: -42%
Cc1sc2nc(CN3CCCC3)nc(Sc3nnnn3C3CCCC3)c2c1C: 21%
Clc1cc2c(c3ncccc13)OCN(C1CCCC1)C2: 22%
FC(F)(F)c1cc(NC(=S)N/N=C/c2ccccn2)cc(C(F)(F)F)c1: 16%
COc1ccccc1C(=O)c1sc(Nc2ccc(C(C)C)cc2)nc1N: 15%
N#CC(=NNc1ccc(OC(F)(F)F)cc1)C(=O)c1ccc(Cl)cc1: 32%

Series 3 — method: Phase 2a trial; refers to: influenza like illness; host: idiopathic pulmonary fibrosis patients; quantity: patients with adverse events
Structure (SMILES): CC(C)n1cnc(-c2ccc(F)cc2)c1-c1ncc(C(=O)Nc2ccc(N3CCN(C)CC3)cc2)[nH]1
30 mg once daily, grade 4 maximum intensity: 0%
dose not given, grade 1 maximum intensity, all arms: 0%
30 mg once daily, grade 5 maximum intensity: 0%
dose not given, grade 3 maximum intensity, all arms: 0%

Series 4 — action: degrader; method: HiBiT luminescence; time: 24 h; quantity: remaining protein level
Compound: Cc1ncsc1-c1ccc([C@H](C)NC(=O)[C@@H]2C[C@@H](O)CN2C(=O)[C@@H](NC(=O)CNC(=O)c2ccc(F)c(-c3ccc(N4C[C@@H](C)N(C)[C@@H](C)C4)c(NC(=O)c4c[nH]c(=O)cc4C(F)(F)F)c3)c2)C(C)(C)C)cc1
Target: WDR5/DCAF1 (Homo sapiens, UniProt P61964+Q9Y4B6)
22.7 nM: 35.8% and 35.7% and 33% and 33.1%
0.6 nM: 90.4% and 91% and 100% and 89.8%
388 nM: 20.5% and 22.5% and 22.9% and 20.9%
0.2 nM: 94% and 88.9% and 90% and 90.5%
58.5 nM: 30.4% and 25.2% and 25.7% and 28.2%

Excerpt of the above (series 2):
O=C(NC1CCCCCC1)c1ccc(-c2ccc(F)cc2)nc1: -42%
Cc1sc2nc(CN3CCCC3)nc(Sc3nnnn3C3CCCC3)c2c1C: 21%
Clc1cc2c(c3ncccc13)OCN(C1CCCC1)C2: 22%
